Measured values from different studies.
Each numbered part is a random draw from the data of one study; scales do not carry over between parts. Substitutions count along the parent as printed.

Study 1 — technique: protein-binding microarray; molecule type: double-stranded DNA, one strand shown; medium: in vitro; concentration: not given; direction: higher = stronger binding; endpoint: E-score
Target: Protein max, full length (MAX, Homo sapiens, UniProt P61244-2, residues 1-151)
Setting: k-mer, scored over probes, only values ≥0.25
CAACCATG: 0.376
CCATGCCC: 0.325
ACTGCGTG: 0.276
GCGTGAGC: 0.376
ACCCGTGC: 0.337
ACCACGCA: 0.346
GCCCACAC: 0.288
AGCGTGCC: 0.408
CAAGCGTG: 0.408
ATGTGATA: 0.341
ACATGACT: 0.341
CACCGTGA: 0.269
ACGCCCAC: 0.311
ATGGGGCA: 0.262

Study 2 — technique: protein-binding microarray; molecule type: double-stranded DNA, one strand shown; medium: in vitro; concentration: 2540 nM top; setting: 60-bp whole probe; together with: salmon DNA 0.4 mg/ml; reference: random background probes; direction: higher = stronger binding; endpoint: fitted relative affinity; constant ends, left off below: GCCTAGCAC … GTCTTGATTCGCTTGACGCTGCTG
Target: Interferon regulatory factor 3, full length, phosphomimetic (IRF3, Homo sapiens, UniProt Q14653, residues 1-427, S386D/S396D/S398D/S402D/T404D/S405D)
Chain of UniProt Q14653 (whole entry, unmodified, looked up): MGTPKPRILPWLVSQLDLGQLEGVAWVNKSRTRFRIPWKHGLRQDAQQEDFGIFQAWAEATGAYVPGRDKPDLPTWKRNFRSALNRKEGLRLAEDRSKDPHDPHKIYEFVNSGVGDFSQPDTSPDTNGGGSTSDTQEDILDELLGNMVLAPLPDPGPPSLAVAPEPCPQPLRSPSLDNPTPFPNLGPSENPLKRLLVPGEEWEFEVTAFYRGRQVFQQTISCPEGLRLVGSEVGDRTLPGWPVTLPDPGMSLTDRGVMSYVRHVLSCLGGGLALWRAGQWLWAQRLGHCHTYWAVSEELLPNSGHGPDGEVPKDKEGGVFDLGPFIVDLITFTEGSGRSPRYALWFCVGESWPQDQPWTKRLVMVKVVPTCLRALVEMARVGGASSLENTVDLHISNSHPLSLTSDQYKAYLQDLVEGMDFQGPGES
TCATTTCTAAAACTCTTACTGTGCTAG: 2.37 z-score
CACTCTCTGGGCTGTGGGTTTGTGCTA: 1.23 z-score
TTAGGTTTCGGTCTCGATTAGTGCTAG: 8.39 z-score
GACGATATCAATCTCGAGACGTGCTAG: 0.819 z-score
CTTAGCATGGGGAGGGAGCAGTGCTAG: -0.131 z-score
TCAACACTCTTCTTTTGCACTGTGCTA: 0.357 z-score
TTGGATTCCAGTTTCGATTAGTGCTAG: 4.38 z-score
AGCACTCCAGAGGCAGAGGCGTGCTAG: -0.973 z-score
TCTTTTTCCTAATTGAACCCGTGCTAG: 4.3 z-score
TTAGGTATCGGTCTCGCTTAGTGCTAG: 3.99 z-score
TTAGATCTCAGTATCGATTAGTGCTAG: 1.05 z-score
GACGGTATCCTACTGCTGAGGTGCTAG: 2.63 z-score
TTAGGTCTCGGTCTCGGTAAGTGCTAG: 1.31 z-score
GACGGACAGGGTTTCGGGACGTGCTAG: 1.03 z-score
GACGGTATTCTACTGCTGACGTGCTAG: 0.159 z-score
CCTCCCCTTGCTTTCCAATTGTGCTAG: 1.53 z-score
CCAGCTCTGATGTTGGGAAAGTGCTAG: 0.169 z-score
GACGGTTTCGGTTTCGGGATGTGCTAG: 10.4 z-score
TCAAGTATTTTTTTCCAACTGTGCTAG: 0.791 z-score
TTAGATTTCTGGACTGGATTAGTGCTA: 0.125 z-score
GACGCTATCGGGTATCGAGACGTGCTA: -0.032 z-score
TTAGGTATCGGTCGCGGTTAGTGCTAG: 1.08 z-score
ATATGTGTATATATAATATAGTGCTAG: 0.624 z-score
GACGGTATCCTACTGCTGATGTGCTAG: 2.51 z-score

Study 3 — technique: RNA Bind-n-Seq; molecule type: RNA; medium: in vitro; concentration: 200 nM; setting: whole 134-nt RNA, ends assumed; together with: 150 mM LiCl; reference: input library; direction: higher = stronger binding; endpoint: log2 enrichment; each molecule: 7-deaza-guanosine replaces G
Target: Ras GTPase-activating protein-binding protein 1, full length (G3BP1, Homo sapiens, UniProt Q13283)
Chain of UniProt Q13283 (whole entry, looked up): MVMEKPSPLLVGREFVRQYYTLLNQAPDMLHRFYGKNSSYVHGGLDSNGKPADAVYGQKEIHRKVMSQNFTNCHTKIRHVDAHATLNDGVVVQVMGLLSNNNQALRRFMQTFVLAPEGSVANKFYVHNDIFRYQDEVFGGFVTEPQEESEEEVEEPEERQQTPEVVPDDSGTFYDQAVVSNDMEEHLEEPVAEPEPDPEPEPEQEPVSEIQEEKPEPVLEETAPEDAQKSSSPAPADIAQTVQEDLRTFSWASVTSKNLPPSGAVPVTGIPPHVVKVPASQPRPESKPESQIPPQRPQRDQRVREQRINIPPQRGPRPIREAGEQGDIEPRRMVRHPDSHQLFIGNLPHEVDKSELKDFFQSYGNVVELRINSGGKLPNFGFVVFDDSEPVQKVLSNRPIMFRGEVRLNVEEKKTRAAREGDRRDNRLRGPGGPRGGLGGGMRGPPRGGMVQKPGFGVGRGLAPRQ
Constant ends, left off below: GGGAGUUCUACAGUCCGACGAUC … UGGAAUUCUCGGGUGUCAAGG
AGUCCUGUGCUACACAUCGUAUGUACCGAAUCGGCCCCGGGGCCCCGGGGCCCCGGGAAAGUAUUAUGUUACGCCGUUCGGAUCUGCACU: -2.39
CUGUGCUACACAUCGUAUGUACCGAAUCAAACCCCCCCAAACCCCCCCAAACCCCCCCAAAAAAGUAUUAUGUUACGCCGUUCGGAUCUG: -0.856
UCCUGUGCUACACAUCGUAUGUACCGAAUCAAAGUGUGUGUGUGUGUGUGUGUGUGAAAAAAGUAUUAUGUUACGCCGUUCGGAUCUGCA: -0.61
CAAGUCCUGUGCUACACAUCGUAUGUACCGAAUCGGGAAGGGGAAGGGGAAGGGGAAAGUAUUAUGUUACGCCGUUCGGAUCUGCACUUC: -0.0958
ACCAUGCAGGUGGGCAUCUUUGGGAAGUGGGGCAAGGGGGGGAUGGGGAGGGGGGUAACACUUUGGGAACAGGUGGUCCCAGGUCGUUUC: 0.0543
UAACUUUAGAGGAGGAUCUGAUUGAUAUGGCAGUGGACGUGGAUUUGGGGAUGGCUAUAAUGGGUAUGGAGGAGGACCUGGAGGUGGCAA: -0.185
ACCAUGCAGAAAGGCAUCUUUGGGAAGUGGGGCAAGGGGGGGAUAGGGAGGGGGGUAACACUUUGGGAACAGGUGGUCCCAGGUCGUUUC: -0.0135
GCAGGAAGUAAAAACAAAUGGAAAUGCUUCGGAUAGUGGCAGGGGUGGGGGUUGCUAAGGAAAGGGUGGGAUGGGAGUGGGCAAAGAGUU: 0.29
CCUCAAGUCCUGUGCUACACAUCGUAUGUACCGAAUCGGGCGGGGCGGGGCGGAAAGUAUUAUGUUACGCCGUUCGGAUCUGCACUUCCA: -0.442
AGUCCUGUGCUACACAUCGUAUGUACCGAAUCGGGAAAGGGAAAAAGGGUUUUUGGGAAAGUAUUAUGUUACGCCGUUCGGAUCUGCACU: -1.79
AGUCCUGUGCUACACAUCGUAUGUACCGAAUCGGGAAAAGGGGAAAAGGGGAAAAGGGAAAGUAUUAUGUUACGCCGUUCGGAUCUGCAC: 0.0518

Study 4 — target: CCNF, cyclin fold, Cln2 fusion (human); technique: yeast growth competition, sequencing; medium: yeast; setting: strong parent motif; reference: not given; direction: higher = stronger binding; endpoint: normalised enrichment score
Parent: RB1 docking peptide (human); PKPLKKLRFDIEG; partner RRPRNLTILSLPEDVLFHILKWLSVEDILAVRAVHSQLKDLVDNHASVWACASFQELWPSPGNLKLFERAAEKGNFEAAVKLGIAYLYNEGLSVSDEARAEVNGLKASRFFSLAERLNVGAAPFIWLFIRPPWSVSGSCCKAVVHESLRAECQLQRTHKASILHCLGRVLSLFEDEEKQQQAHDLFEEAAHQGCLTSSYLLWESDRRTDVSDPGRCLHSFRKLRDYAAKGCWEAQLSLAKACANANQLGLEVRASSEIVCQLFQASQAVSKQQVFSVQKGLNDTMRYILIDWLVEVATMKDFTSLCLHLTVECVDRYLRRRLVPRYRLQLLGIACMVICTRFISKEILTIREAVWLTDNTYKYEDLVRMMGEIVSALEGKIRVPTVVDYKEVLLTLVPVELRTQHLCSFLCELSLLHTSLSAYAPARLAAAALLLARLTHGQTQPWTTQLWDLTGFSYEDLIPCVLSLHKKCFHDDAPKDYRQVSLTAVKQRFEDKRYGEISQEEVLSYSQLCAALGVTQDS
FKPLKKLRFDIEG [P1F]: 1.05
PKPLKKLRFDCEG [I11C]: 0.714
PKPNKKLRFDIEG [L4N]: 4.04
PKPIKKLRFDIEG [L4I]: 4.08
PKPLKKWRFDIEG [L7W]: 1.72
PKPLKKLREDIEG [F9E]: 0.275
PKPLKKSRFDIEG [L7S]: 1.11
YKPLKKLRFDIEG [P1Y]: 1.95
PKPLKKLRFDIEP [G13P]: 2.21
PKPLKKLRDDIEG [F9D]: 0.797
PKILKKLRFDIEG [P3I]: 1.39
PKPLKKLRWDIEG [F9W]: 0.944
PKPLKKLRFLIEG [D10L]: 2.92
PSPLKKLRFDIEG [K2S]: 0.724
PKPLRKLRFDIEG [K5R]: 6.33
PKPLKKLRFDVEG [I11V]: 1.46
PKPLKKLRSDIEG [F9S]: 0.746
PKPLKKLRPDIEG [F9P]: 0.354
QKPLKKLRFDIEG [P1Q]: 2.2
PKPDKKLRFDIEG [L4D]: 1.92
PKPLKKYRFDIEG [L7Y]: -0.0235
PKPLWKLRFDIEG [K5W]: 1.59
PKPLKKLIFDIEG [R8I]: 2.58
PKPLKKLRFRIEG [D10R]: 2.96
AKPLKKLRFDIEG [P1A]: 0.807

Study 5 — technique: universal PBM; molecule type: double-stranded DNA, one strand shown; medium: in vitro; concentration: not given; direction: higher = stronger binding; endpoint: E-score
Target: Sal-like protein 4, full length isoform B (SALL4, Homo sapiens, UniProt Q9UJQ4-2, residues 1-616)
Setting: 8-mer, flanks averaged, mean of replicates
Target sequence (chain): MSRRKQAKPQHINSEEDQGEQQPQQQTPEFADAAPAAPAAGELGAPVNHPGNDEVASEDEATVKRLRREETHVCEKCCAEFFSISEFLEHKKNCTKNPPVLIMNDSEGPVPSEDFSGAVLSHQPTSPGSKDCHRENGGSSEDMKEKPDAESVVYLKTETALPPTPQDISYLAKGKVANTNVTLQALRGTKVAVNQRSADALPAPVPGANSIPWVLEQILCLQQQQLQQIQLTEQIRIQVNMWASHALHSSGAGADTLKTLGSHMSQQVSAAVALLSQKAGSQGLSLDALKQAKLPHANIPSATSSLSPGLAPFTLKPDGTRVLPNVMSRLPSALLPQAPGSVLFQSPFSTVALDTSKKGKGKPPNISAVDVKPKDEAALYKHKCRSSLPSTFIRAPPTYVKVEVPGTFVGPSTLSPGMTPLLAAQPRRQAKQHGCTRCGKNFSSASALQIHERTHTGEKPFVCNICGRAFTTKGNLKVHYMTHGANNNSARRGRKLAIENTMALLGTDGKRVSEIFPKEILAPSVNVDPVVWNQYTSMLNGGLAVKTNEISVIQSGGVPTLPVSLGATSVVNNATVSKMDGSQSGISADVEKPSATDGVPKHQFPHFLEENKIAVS
CACCCACC: -0.204
AGATACCC: 0.153
ATGACCTC: -0.124
GCGATGCC: -0.358
AACGTTGC: 0.0633
AAGAGATG: -0.0344
TCAGGTAA: 0.135
CACTCCTG: -0.0842
AACTTAAG: 0.0964
ATCAGACG: -0.0287
ATTTTAGC: 0.158
AGGCCAAC: -0.172
GAAGCCCA: -0.151
AATGCCCG: -0.281
CATCCCTA: -0.0531
AGGAACTA: -0.0704
GGGGAACA: -0.173
CGATACCG: -0.238
ACAGTTGG: 0.00791
GCGGATCC: -0.252
ATGGGTCC: -0.0721
GAACATTA: 0.255
CTCTCGTA: 0.0245
CAGCCTCG: -0.207
CCTTTGCG: -0.0142

Repeated from above (study 2):
TTAGGTATCGGTCTCGCTTAGTGCTAG: 3.99 z-score
ATATGTGTATATATAATATAGTGCTAG: 0.624 z-score
GACGATATCAATCTCGAGACGTGCTAG: 0.819 z-score
TTGGATTCCAGTTTCGATTAGTGCTAG: 4.38 z-score
CACTCTCTGGGCTGTGGGTTTGTGCTA: 1.23 z-score
TCTTTTTCCTAATTGAACCCGTGCTAG: 4.3 z-score
GACGGTTTCGGTTTCGGGATGTGCTAG: 10.4 z-score
GACGCTATCGGGTATCGAGACGTGCTA: -0.032 z-score
CCTCCCCTTGCTTTCCAATTGTGCTAG: 1.53 z-score
AGCACTCCAGAGGCAGAGGCGTGCTAG: -0.973 z-score
GACGGTATCCTACTGCTGATGTGCTAG: 2.51 z-score
TCAACACTCTTCTTTTGCACTGTGCTA: 0.357 z-score
GACGGTATTCTACTGCTGACGTGCTAG: 0.159 z-score
